Measurements gathered from unrelated publications.
Each line is one published result; not all experiments were run side by side. ± gives the spread as reported.
NPR2: Atrial natriuretic peptide receptor 2 (NPR2, Homo sapiens, UniProt P20594)
UniProt P20594, sequence (whole entry, looked up): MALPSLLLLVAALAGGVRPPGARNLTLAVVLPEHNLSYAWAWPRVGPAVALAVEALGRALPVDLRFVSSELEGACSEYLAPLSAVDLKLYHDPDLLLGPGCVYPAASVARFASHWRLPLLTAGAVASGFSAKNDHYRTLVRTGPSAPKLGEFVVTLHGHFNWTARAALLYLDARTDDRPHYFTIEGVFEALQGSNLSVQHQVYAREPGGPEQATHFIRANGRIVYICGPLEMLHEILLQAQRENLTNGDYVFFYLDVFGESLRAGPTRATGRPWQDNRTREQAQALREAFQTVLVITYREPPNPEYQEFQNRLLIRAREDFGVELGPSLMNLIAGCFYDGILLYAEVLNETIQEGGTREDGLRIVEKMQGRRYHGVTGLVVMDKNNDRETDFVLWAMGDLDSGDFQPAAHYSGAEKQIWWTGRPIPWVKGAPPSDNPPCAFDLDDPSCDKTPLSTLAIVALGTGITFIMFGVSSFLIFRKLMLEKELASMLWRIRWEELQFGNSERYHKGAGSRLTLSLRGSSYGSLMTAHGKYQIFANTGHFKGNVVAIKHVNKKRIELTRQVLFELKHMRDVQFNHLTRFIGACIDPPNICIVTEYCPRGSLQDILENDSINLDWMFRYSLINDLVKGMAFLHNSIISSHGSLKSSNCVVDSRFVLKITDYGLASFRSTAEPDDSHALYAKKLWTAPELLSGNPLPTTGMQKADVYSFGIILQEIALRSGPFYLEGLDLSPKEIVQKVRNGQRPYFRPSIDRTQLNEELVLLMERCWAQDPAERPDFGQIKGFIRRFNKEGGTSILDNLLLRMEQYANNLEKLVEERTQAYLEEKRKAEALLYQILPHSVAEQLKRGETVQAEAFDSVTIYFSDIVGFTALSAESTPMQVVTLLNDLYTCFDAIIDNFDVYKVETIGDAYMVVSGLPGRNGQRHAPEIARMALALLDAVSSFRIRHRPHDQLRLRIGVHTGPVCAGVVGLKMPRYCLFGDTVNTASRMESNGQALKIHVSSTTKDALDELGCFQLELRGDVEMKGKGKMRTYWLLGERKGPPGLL
TRPA1: Transient receptor potential cation channel subfamily A member 1 (TRPA1, Homo sapiens, UniProt O75762)
UniProt O75762, sequence (whole entry, looked up): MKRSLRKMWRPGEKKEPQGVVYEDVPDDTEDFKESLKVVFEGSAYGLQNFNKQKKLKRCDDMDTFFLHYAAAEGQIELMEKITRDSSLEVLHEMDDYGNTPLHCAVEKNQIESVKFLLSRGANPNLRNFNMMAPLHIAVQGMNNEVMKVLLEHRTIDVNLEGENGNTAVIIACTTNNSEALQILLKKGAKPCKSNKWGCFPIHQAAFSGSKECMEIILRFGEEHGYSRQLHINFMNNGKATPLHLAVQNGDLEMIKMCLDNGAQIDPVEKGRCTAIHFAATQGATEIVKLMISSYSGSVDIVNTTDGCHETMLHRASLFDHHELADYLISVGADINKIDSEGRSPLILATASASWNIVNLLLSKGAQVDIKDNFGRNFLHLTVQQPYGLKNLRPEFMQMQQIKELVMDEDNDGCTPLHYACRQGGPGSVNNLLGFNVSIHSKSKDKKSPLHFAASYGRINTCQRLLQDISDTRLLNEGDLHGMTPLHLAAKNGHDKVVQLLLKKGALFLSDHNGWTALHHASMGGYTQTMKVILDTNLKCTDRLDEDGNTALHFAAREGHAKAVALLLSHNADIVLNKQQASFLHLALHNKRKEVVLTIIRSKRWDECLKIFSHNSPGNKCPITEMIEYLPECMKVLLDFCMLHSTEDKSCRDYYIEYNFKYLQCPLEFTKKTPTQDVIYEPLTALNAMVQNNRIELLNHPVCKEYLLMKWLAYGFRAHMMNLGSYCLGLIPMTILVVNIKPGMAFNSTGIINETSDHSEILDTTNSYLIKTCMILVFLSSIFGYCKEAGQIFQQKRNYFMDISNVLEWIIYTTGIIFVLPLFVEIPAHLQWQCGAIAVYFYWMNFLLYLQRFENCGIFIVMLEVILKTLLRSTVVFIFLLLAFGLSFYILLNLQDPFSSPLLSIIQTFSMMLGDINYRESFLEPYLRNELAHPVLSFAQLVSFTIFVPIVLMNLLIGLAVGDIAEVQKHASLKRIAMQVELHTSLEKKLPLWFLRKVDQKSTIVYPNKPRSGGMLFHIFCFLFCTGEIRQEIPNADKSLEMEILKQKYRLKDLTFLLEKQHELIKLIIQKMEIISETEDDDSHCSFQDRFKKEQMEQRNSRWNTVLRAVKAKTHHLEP
MC5R: Melanocortin receptor 5 (MC5R, Homo sapiens, UniProt P33032)
UniProt P33032, sequence (whole entry, looked up): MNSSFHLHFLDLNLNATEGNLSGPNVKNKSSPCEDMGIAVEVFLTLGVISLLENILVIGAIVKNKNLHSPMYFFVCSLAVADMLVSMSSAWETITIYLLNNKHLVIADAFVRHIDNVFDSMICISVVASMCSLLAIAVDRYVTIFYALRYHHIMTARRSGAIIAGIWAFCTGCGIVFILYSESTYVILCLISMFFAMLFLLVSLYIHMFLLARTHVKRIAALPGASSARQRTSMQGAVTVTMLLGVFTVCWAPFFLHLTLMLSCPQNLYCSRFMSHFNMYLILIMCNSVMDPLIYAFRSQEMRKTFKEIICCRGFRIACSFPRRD
S1PR2: Sphingosine 1-phosphate receptor 2 (S1PR2, Homo sapiens, UniProt O95136)
UniProt O95136, sequence (whole entry, looked up): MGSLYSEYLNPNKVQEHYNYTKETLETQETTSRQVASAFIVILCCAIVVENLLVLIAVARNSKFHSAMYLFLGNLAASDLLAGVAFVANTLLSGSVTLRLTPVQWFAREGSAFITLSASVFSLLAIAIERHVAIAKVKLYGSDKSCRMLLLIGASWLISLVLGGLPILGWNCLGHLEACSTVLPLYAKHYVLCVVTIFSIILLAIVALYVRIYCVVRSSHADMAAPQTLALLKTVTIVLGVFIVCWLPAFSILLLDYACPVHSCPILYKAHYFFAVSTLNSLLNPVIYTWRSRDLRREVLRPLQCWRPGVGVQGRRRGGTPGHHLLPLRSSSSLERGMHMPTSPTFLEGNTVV
Methoprene-tolerant protein with Taiman: Methoprene-tolerant protein, with Taiman (Drosophila melanogaster, UniProt O44118)
UniProt Q7RTX7, sequence (whole entry, looked up): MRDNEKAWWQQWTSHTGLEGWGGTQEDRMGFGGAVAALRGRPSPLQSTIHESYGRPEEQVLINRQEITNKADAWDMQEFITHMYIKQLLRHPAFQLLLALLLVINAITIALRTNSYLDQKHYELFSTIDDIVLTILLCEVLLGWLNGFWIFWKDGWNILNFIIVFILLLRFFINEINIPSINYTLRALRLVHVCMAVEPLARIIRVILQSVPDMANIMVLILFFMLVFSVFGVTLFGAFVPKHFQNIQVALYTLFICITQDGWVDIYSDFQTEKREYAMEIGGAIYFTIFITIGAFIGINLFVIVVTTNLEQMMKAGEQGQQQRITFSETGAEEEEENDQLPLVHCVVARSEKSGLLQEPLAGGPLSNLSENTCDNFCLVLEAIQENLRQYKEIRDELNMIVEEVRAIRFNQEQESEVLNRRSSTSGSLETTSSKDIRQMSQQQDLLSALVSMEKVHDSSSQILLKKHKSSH
UniProt P41587, sequence (whole entry, looked up): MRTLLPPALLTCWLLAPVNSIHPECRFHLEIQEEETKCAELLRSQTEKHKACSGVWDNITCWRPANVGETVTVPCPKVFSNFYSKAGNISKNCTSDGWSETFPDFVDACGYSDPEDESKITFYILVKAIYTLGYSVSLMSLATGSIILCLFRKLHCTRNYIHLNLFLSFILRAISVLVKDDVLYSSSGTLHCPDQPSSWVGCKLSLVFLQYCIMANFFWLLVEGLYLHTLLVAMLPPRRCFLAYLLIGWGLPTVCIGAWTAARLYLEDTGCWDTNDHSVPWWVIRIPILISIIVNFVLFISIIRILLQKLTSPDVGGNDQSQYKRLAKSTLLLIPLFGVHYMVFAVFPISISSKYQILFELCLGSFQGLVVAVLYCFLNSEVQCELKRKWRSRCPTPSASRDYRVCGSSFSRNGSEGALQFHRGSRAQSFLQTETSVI
UniProt Q8NEC5, sequence (whole entry, looked up): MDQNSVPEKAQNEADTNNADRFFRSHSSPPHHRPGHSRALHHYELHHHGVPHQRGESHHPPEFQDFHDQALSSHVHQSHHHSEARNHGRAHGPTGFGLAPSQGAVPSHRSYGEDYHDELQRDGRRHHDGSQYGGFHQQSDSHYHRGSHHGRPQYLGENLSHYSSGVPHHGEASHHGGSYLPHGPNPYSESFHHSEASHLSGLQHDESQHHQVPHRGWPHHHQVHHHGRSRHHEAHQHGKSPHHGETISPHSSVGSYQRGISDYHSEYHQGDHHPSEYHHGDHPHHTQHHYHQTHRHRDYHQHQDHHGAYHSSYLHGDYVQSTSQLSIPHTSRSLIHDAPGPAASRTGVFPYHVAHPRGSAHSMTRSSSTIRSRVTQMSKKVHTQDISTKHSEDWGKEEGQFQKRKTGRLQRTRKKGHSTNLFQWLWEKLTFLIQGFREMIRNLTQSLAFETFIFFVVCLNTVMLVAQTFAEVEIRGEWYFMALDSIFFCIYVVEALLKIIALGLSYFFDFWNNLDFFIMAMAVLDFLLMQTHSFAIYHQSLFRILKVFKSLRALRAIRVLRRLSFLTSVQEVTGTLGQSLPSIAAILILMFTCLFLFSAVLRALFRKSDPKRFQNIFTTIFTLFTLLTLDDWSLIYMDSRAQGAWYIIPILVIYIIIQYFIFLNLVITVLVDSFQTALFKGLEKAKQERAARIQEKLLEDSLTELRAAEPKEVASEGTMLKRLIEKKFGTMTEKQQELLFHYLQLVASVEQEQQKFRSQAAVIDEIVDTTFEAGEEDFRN
UniProt Q9NSD7, sequence (whole entry, looked up): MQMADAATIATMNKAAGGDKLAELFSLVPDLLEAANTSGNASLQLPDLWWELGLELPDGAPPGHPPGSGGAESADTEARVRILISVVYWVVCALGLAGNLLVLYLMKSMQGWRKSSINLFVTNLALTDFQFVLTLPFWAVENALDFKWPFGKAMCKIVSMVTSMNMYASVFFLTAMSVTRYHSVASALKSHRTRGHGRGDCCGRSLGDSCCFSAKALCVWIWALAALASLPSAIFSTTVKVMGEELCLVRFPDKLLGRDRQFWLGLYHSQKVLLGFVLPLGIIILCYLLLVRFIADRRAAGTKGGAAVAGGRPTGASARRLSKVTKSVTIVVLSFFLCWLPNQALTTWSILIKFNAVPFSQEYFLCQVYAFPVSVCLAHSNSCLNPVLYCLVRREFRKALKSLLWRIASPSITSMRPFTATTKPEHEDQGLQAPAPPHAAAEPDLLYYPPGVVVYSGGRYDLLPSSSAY

S=C(c1ccc(-c2cc(Cl)ccc2Cl)o1)N1CCN(CCc2ccccn2)CC1  EC50 (NPR2; cGMP production, positive allosteric modulator, cGMP HTRF; HEK293 expressing human GC-B; added: CNP at EC30): 1200 nM
CCCCC/C=C\C/C=C\CC1OC1C/C=C\CCCC(=O)O (centres unmarked)  EC50 (TRPA1; calcium signal, agonist, fluorescence): 32700 nM
N#CCCN1CCN(C(=S)c2ccc(-c3cccc(Cl)c3)o2)CC1  EC50 (NPR2; cGMP production, positive allosteric modulator, cGMP HTRF; HEK293 expressing human GC-B; added: CNP at EC30): 830 nM
CC(C)C[C@H](NC(=O)[C@H](C)NC(=O)CNC(=O)[C@H](CC(C)C)NC(=O)[C@@H](NC(=O)[C@H](CC(N)=O)NC(=O)[C@H](CCC(=O)O)NC(=O)[C@@H]1CCCN1C(=O)[C@@H]1CCCN1C(=O)[C@@H](NC(=O)[C@H](CCC(=O)O)NC(=O)[C@@H]1CCCN1C(=O)CNC(=O)[C@H](CC(C)C)NC(=O)[C@H](CC(=O)O)NC(=O)[C@H](CCC(N)=O)NC(=O)[C@H](CC(=O)O)NC(=O)[C@@H](NC(=O)[C@@H](N)CO)C(C)C)C(C)C)C(C)C)C(=O)N[C@@H](CC(C)C)C(=O)N[C@@H](CCCNC(=N)N)C(=O)N[C@H](C(=O)O)C(C)C  EC50 (G-protein coupled receptor 83 (Mus musculus, UniProt P30731); GTPγS binding, agonist, radiometric; cell membranes): ~0.2 nM
N#CCCN1CCN(C(=S)c2ccc(-c3ccccc3F)o2)CC1  EC50 (NPR2; cGMP production, positive allosteric modulator, cGMP HTRF; HEK293 expressing human GC-B; added: CNP at EC30): 1570 nM
CSCC[C@H](NC(=O)[C@@H]1CCCN1C(=O)CNC(=O)[C@H](CCCCN)NC(=O)[C@H](Cc1c[nH]cn1)NC(=O)[C@H](CO)NC(=O)[C@H](CC(C)C)NC(=O)[C@H](CCCNC(=N)N)NC(=O)[C@@H]1CCCN1C(=O)[C@H](CCCNC(=N)N)NC(=O)[C@H](CCC(N)=O)NC(=O)[C@H](CCCNC(=N)N)NC(=O)[C@H](CCCNC(=N)N)NC(=O)[C@H](Cc1ccccc1)NC(=O)[C@H](CCCCN)NC(=O)[C@H](CCCNC(=N)N)NC(=O)[C@H](CCCNC(=N)N)NC(=O)CNC(=O)CNC(=O)[C@H](CCC(N)=O)NC(=O)[C@H](Cc1c[nH]c2ccccc12)NC(=O)[C@@H]1CCCN1C(=O)CNC(=O)[C@@H]1CCCN1C(=O)CNC(=O)[C@H](CC(N)=O)NC(=O)[C@H](CCCNC(=N)N)NC(=O)[C@H](CO)NC(=O)CNC(=O)[C@H](CCCNC(=N)N)NC(=O)[C@@H]1CCCN1C(=O)[C@H](CCC(N)=O)NC(=O)[C@@H](NC(=O)[C@@H](N)CC(C)C)C(C)C)C(=O)N1CCC[C@H]1C(=O)N[C@@H](Cc1ccccc1)C(=O)O  EC50 (Apelin receptor (APLNR, Homo sapiens, UniProt P35414); β-arrestin-2 recruitment, agonist, BRET; HEK293; 15 min): 5.18 ± 0.65 nM
N=C(N)NCCC[C@H](NC(=O)[C@H](CC(=O)O)NC(=O)[C@@H]1CSCCC(=O)NCC(=O)N[C@@H](Cc2c[nH]cn2)C(=O)N[C@H](Cc2ccccc2)C(=O)N[C@@H](CCCNC(=N)N)C(=O)N[C@H](Cc2c[nH]c3ccccc23)C(=O)N1)C(=O)N[C@@H](Cc1ccccc1)C(=O)NCC(N)=O  EC50 (MC5R; cAMP, agonist): 1000 nM
S=C(c1ccc(-c2cc(Cl)ccc2Cl)o1)N1CCNCC1  EC50 (NPR2; cGMP production, positive allosteric modulator, cGMP HTRF; HEK293 expressing human GC-B; added: CNP at EC30): > 10000 nM
S=C(Nc1ccc(Cl)cc1)Nc1cccc2[nH]ccc12  EC50 (Alpha-synuclein (SNCA, Homo sapiens, UniProt P37840); fibril formation, inhibitor, thioflavin T fluorescence; added: SNCA 6 µM): 29800 ± 3700 nM
CCc1nc(-c2ccc(-c3ccc(CCC(N)(CO)CO)cc3)cc2)co1  EC50 (S1PR2; β-arrestin recruitment, agonist): > 10000 nM
CC(=O)N1CCN(C(=S)c2ccc(-c3cc(Cl)ccc3Cl)o2)CC1  EC50 (NPR2; cGMP production, positive allosteric modulator, cGMP HTRF; HEK293 expressing human GC-B; added: CNP at EC30): 2900 nM
O=C(O)COc1cccc(NC(=O)c2cc(-c3cccc(F)c3)ccc2F)c1  EC50 (PTGFR (Homo sapiens, UniProt P43088); calcium signal, agonist, fluorescence): > 10000 nM
CC(=O)N(C)c1ccc(NC(=O)C(C)Oc2ccc(Cl)cc2Cl)cc1 (centres unmarked)  EC50 (Methoprene-tolerant protein with Taiman; reporter gene, agonist; HEK293T expressing Drosophila Met/Tai; 24 h): > 100000 nM
C/C(=C\CC[C@@]1(C)[C@@H]2C=C(CO)CC[C@@H]21)CO (racemic)  EC50 (CatSper channel complex (Homo sapiens, UniProt Q7RTX7+Q86XQ3+Q8NEC5+Q96P56); human cells): 2900 ± 700 nM
Cc1cc(C(=O)CN2CCCC2=O)c(C)n1Cc1ccccc1  EC50 (S1PR2; reporter gene, agonist): > 10000 nM
CC[C@H](C)[C@H](NC(=O)[C@H](Cc1ccccc1)NC(=O)[C@H](CCC(=O)O)NC(=O)[C@H](CCCN=C(N)N)NC(=O)CNC(=O)[C@H](CO)NC(=O)[C@H](CC(C)C)NC(=O)[C@H](CCCN=C(N)N)NC(=O)[C@@H](NC(=O)CNC(=O)[C@H](Cc1ccc(O)cc1)NC(=O)[C@@H]1CCCN1C(=O)[C@H](C)NC(=O)[C@H](C)NC(=O)[C@@H](N)CCCN=C(N)N)C(C)C)C(=O)N[C@@H](CCCN=C(N)N)C(=O)N[C@@H](C)C(=O)N[C@H](C(=O)N[C@H](C(=O)N[C@@H](Cc1ccccc1)C(=O)N[C@H](C(=O)N[C@@H](CO)C(=O)NCC(=O)NCC(=O)N[C@@H](CO)C(=O)N[C@@H](CCCN=C(N)N)C(=O)N[C@@H](Cc1c[nH]c2ccccc12)C(=O)O)[C@@H](C)O)[C@@H](C)CC)C(C)C  EC50 (RXFP3 (Homo sapiens, UniProt Q9NSD7); cAMP, agonist): 955 nM
CC(C)CN(CC(C)C)C(=O)/C=C/C=C/c1ccc2c(c1)OCO2  EC50 (Gabrb1/Gabra1 (Rattus norvegicus, UniProt P15431+P62813); GABA current potentiation, positive modulator, two-electrode voltage clamp; Xenopus oocytes expressing α1β1; added: GABA EC3-7): 13300 ± 2900 nM
CC[C@H](C)[C@H](NC(=O)CNC(=O)C1CCN(C(=O)[C@H](CO)NC(=O)[C@@H](N)Cc2c[nH]cn2)CC1)C(=O)N[C@@H](Cc1ccccc1)C(=O)N[C@H](C(=O)N[C@@H](CC(=O)O)C(=O)N[C@@H](CO)C(=O)N[C@@H](Cc1ccc(O)cc1)C(=O)N[C@@H](CO)C(=O)N[C@@H](CCCNC(=N)N)C(=O)N[C@@H](Cc1ccc(O)cc1)C(=O)N[C@@H](CCCNC(=N)N)C(=O)N[C@@H](CCCCN)C(=O)NC(C)(C)C(=O)N[C@@H](C)C(=O)N[C@@H](C)C(=O)N[C@H](C(=O)N[C@@H](CCCCN)C(=O)N[C@@H](CCCCN)C(=O)N[C@@H](Cc1ccc(O)cc1)C(=O)N[C@@H](CC(C)C)C(=O)N[C@@H](C)C(=O)N[C@@H](C)C(=O)N[C@H](C(=O)N[C@@H](CC(C)C)C(=O)NC(C)(C)C(=O)N[C@@H](CCCCN)C(=O)N[C@@H](CCCNC(=N)N)C(=O)N[C@@H](Cc1ccc(O)cc1)C(=O)N[C@@H](CCCCN)C(=O)N[C@@H](CCC(N)=O)C(=O)N[C@@H](CCCCN)C(=O)N[C@H](C(=O)N[C@@H](CCCCN)C(=O)N[C@@H](CC(N)=O)C(=O)N[C@H](CCCCN)C(N)=O)C(C)C)C(C)C)C(C)C)[C@@H](C)O  EC50 (VIPR2 (Homo sapiens, UniProt P41587); cAMP production, agonist; PANC-1 transfected with receptor): > 1000 nM
COC(=O)c1ccc(N2CCN(C(=O)C3CC3)C(C)C2)cc1 (centres unmarked)  EC50 (Methoprene-tolerant protein with Taiman; reporter gene, agonist; HEK293T expressing Drosophila Met/Tai; 24 h): 871 nM
CC(C)C[C@H](NC(=O)[C@H](Cc1ccccc1)NC(=O)c1cnccn1)B(O)O  EC50 (Proteasome subunits (Trypanosoma cruzi, UniProt Q4CU77+Q4D8U7); trypsin-like activity, inhibitor; wild-type proteasome, PSMB4 wild type): 1700 nM
O=C(NC[C@@H](Cc1ccccc1)N1CCC(O)(C(F)(F)F)CC1)C1(c2ccc(Cl)cc2)CCCC1  EC50 (TRPA1; calcium signal, agonist): 26 nM
CCCCCCCOc1ccc(CC[C@](N)(CO)COP(=O)(O)O)cc1C(F)(F)F  EC50 (S1PR2; calcium signal, agonist): > 10000 nM
N#CCCN1CCN(C(=S)c2ccc(-c3cccc(C(F)(F)F)c3)o2)CC1  EC50 (NPR2; cGMP production, positive allosteric modulator, cGMP HTRF; HEK293 expressing human GC-B; added: CNP at EC30): 1530 nM
N=C(N)NCCC[C@H](NC(=O)[C@H](CC(=O)O)NC(=O)[C@@H]1CSCC(=O)NCC(=O)N[C@@H](Cc2c[nH]cn2)C(=O)N[C@H](Cc2ccccc2)C(=O)N[C@@H](CCCNC(=N)N)C(=O)N[C@H](Cc2c[nH]c3ccccc23)C(=O)N1)C(=O)N[C@@H](Cc1ccccc1)C(=O)NCC(N)=O  EC50 (MC5R; cAMP, agonist): > 1000 nM
CC(Oc1ccccc1)C(=O)NCC1CCN(c2ccccn2)CC1 (centres unmarked)  EC50 (Methoprene-tolerant protein with Taiman; reporter gene, agonist; HEK293T expressing Drosophila Met/Tai; 24 h): > 100000 nM
S=C(c1ccc(-c2cc(Cl)ccc2Cl)o1)N1CCN(CCc2cccnc2)CC1  EC50 (NPR2; cGMP production, positive allosteric modulator, cGMP HTRF; HEK293 expressing human GC-B; added: CNP at EC30): > 8000 nM
CC(C)C[C@H](NC(=O)[C@H](CC(C)C)NC(=O)[C@H](Cc1ccccc1)NC(=O)[C@@H](N)CO)C(=O)N[C@@H](CCCN=C(N)N)C(=O)N[C@@H](CC(N)=O)C(=O)O  EC50 (F2R (Homo sapiens, UniProt P25116); ATP release, agonist; human platelets): ~3000 nM
N#CCCN1CCN(C(=S)c2ccc(-c3ccc(Cl)cc3)o2)CC1  EC50 (NPR2; cGMP production, positive allosteric modulator, cGMP HTRF; HEK293 expressing human GC-B; added: CNP at EC30): 420 nM
Cc1ccc2nc(-c3ccc(NC(=O)C(F)(F)C4(F)OC(F)(F)C(F)(F)C4(F)F)cc3)sc2c1 (centres unmarked)  EC50 (Methoprene-tolerant protein with Taiman; reporter gene, agonist; HEK293T expressing Drosophila Met/Tai; 24 h): > 100000 nM
